Measured values gathered from unrelated publications.
Each numbered part is a random draw from the data of one study; scales do not carry over between parts. “And” joins repeats or separate records; there may be more than shown.
UniProt Q13164, sequence (whole entry, looked up): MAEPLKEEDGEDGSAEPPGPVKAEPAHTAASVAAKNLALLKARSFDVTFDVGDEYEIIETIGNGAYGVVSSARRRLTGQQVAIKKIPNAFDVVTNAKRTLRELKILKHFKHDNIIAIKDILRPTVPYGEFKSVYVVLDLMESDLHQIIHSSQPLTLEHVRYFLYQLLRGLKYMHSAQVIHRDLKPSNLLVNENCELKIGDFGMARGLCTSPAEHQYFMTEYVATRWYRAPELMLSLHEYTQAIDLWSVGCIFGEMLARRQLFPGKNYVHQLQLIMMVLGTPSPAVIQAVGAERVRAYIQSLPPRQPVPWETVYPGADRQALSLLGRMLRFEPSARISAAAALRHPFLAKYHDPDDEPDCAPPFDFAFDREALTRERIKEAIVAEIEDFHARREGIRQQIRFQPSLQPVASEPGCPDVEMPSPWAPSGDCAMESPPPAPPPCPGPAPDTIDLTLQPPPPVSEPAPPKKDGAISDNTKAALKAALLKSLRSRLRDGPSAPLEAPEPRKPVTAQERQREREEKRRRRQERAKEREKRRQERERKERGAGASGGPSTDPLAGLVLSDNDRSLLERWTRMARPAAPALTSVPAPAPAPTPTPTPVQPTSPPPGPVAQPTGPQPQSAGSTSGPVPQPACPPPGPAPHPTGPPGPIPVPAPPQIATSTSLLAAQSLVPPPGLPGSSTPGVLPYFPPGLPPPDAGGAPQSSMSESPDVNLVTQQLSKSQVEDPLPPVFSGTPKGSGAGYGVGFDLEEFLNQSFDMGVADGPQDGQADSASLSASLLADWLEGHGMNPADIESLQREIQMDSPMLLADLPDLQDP
UniProt P27448, sequence (whole entry, looked up): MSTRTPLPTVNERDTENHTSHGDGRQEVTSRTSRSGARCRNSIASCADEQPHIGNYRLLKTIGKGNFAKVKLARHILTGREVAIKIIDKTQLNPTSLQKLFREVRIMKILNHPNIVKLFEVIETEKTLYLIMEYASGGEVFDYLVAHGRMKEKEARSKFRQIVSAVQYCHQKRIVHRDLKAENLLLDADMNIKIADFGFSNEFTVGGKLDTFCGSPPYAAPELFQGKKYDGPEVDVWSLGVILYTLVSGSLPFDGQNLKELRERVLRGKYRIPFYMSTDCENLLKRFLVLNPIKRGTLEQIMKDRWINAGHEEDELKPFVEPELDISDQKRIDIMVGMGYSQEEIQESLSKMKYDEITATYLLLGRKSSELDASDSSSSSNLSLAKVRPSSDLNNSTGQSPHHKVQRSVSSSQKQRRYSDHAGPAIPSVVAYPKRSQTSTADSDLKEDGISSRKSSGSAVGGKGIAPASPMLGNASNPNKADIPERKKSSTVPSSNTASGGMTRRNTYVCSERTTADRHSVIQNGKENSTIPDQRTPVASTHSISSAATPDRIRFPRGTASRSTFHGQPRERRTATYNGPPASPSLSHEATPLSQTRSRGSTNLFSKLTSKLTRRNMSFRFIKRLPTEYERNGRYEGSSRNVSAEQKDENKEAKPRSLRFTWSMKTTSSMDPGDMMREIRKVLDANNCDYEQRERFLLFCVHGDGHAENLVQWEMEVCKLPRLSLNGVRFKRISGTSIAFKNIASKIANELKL
UniProt Q9UF33, sequence (whole entry, looked up): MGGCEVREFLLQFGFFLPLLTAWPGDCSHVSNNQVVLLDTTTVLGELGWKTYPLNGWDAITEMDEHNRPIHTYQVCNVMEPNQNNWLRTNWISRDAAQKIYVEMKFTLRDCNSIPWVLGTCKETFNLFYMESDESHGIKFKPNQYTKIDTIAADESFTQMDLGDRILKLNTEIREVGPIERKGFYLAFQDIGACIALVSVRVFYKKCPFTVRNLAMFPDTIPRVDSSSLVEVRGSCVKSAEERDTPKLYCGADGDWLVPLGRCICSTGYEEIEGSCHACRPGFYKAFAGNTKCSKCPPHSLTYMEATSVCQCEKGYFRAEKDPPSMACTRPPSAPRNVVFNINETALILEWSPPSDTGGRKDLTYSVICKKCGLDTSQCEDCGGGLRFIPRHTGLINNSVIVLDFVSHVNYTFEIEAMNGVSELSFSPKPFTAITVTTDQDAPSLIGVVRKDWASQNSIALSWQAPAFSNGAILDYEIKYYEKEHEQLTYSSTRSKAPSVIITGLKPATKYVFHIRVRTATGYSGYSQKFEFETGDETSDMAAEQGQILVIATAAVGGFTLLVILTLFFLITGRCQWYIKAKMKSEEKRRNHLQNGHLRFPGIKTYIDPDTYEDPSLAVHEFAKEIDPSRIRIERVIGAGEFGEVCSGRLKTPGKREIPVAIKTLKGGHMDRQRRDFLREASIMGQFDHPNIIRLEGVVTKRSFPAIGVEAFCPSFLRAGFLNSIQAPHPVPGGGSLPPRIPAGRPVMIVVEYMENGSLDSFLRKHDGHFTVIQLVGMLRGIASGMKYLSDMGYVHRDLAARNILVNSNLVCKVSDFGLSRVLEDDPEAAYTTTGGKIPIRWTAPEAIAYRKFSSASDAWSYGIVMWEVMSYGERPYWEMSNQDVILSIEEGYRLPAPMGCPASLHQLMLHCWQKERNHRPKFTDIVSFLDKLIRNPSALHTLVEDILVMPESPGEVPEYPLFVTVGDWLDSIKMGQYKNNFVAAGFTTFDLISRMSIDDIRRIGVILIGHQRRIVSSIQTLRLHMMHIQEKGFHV
UniProt O15264, sequence (whole entry, looked up): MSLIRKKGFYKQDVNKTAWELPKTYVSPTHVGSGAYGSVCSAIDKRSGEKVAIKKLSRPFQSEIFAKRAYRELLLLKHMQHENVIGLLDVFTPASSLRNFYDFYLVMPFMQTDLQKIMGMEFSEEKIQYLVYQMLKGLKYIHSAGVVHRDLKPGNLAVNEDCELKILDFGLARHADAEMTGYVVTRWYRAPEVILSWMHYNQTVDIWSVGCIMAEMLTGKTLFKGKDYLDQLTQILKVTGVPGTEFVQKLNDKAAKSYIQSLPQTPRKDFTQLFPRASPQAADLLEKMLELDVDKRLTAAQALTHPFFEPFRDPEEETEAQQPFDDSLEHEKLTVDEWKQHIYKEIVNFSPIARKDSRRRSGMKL
UniProt Q9Y243, sequence (whole entry, looked up): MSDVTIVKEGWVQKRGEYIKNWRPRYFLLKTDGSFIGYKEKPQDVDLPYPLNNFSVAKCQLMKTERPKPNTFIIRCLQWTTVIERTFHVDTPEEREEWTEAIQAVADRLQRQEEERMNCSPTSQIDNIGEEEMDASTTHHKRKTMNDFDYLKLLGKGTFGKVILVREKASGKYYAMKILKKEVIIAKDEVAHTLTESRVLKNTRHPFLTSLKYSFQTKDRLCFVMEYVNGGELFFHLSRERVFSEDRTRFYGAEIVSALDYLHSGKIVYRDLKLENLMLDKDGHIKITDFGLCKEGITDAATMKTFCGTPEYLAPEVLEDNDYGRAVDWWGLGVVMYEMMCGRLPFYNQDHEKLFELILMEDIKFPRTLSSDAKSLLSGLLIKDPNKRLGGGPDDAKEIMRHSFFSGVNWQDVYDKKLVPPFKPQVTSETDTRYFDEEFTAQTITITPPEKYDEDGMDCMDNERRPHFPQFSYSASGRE
UniProt P41240, sequence (whole entry, looked up): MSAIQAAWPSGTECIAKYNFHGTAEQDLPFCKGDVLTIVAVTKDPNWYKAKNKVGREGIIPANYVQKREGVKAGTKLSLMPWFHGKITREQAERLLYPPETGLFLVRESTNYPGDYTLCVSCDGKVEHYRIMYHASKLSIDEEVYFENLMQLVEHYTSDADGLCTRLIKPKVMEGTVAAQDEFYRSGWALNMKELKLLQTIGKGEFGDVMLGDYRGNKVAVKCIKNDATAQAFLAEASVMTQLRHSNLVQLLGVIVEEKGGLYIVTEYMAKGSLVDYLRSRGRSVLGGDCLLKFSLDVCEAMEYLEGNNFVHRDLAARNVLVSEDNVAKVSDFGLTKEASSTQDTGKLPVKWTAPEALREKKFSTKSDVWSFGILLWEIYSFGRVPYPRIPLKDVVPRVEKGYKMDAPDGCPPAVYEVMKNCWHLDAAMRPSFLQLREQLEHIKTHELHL
UniProt P23443, sequence (whole entry, looked up): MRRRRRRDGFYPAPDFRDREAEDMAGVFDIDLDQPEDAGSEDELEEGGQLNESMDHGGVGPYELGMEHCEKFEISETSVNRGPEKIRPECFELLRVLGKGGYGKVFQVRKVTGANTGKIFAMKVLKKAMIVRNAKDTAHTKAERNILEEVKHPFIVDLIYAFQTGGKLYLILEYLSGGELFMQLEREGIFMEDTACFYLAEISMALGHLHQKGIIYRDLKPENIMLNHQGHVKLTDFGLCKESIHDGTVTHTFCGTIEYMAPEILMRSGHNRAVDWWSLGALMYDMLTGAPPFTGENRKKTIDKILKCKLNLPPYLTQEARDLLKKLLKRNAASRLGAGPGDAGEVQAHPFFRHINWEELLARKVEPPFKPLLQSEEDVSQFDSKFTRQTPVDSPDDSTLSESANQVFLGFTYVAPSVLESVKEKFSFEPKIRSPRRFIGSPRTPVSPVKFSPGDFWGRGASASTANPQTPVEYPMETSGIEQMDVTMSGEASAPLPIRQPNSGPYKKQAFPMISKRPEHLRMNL

Block 1 — observed: cell-free assay; method: competition with immobilised ligand; concentration: 1 µM
SMILES: CNC(=O)Nc1ccc2c(c1)CC[C@@]21OC(=O)N(CC(=O)N(Cc2ccc(F)cc2)[C@@H](C)C(F)(F)F)C1=O
| target | remaining binding [%] |
| --- | --- |
| MAPK7 (Homo sapiens, UniProt Q13164) | 60 |
| PIM3 (Homo sapiens, UniProt Q86V86) | 97 |
| MAP2K3 (Homo sapiens, UniProt P46734) | 71 |
| AKT3 (Homo sapiens, UniProt Q9Y243) | 100 |
| MAPK13 (Homo sapiens, UniProt O15264) | 83 |
| Ribosomal protein S6 kinase alpha-5, N-terminal kinase domain (RPS6KA5, Homo sapiens, UniProt O75582) | 97 |
| PRKD1 (Homo sapiens, UniProt Q15139) | 99 |
| RPS6KB1 (Homo sapiens, UniProt P23443) | 100 |
| CSK (Homo sapiens, UniProt P41240) | 100 |
| EPHA6 (Homo sapiens, UniProt Q9UF33) | 79 |
| TBK1 (Homo sapiens, UniProt Q9UHD2) | 83 |
| MARK3 (Homo sapiens, UniProt P27448) | 100 |
| IRAK4 (Homo sapiens, UniProt Q9NWZ3) | 78 |
| MAP4K4 (Homo sapiens, UniProt O95819) | 87 |
| ULK3 (Homo sapiens, UniProt Q6PHR2) | 90 |

Block 2 — observed: enzyme activity; mode: inhibitor; concentration: 10 µM
Target: Calcium/calmodulin-dependent protein kinase type II subunit alpha (CAMK2A, Homo sapiens, UniProt Q9UQM7)
UniProt Q9UQM7, sequence (whole entry, looked up): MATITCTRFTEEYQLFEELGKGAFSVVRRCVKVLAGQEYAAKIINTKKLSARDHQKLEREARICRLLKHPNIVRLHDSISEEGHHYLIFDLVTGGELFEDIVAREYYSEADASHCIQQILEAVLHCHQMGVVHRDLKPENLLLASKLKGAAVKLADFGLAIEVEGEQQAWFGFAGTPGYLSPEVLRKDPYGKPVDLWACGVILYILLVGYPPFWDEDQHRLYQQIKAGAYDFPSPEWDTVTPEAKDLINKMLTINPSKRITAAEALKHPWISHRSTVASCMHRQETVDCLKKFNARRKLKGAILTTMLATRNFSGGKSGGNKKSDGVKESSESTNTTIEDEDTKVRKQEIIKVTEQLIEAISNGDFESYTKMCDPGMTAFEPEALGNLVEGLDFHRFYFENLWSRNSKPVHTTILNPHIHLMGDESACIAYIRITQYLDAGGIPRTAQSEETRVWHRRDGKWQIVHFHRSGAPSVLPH
| SMILES | inhibition [%] |
| --- | --- |
| CN(C)CCOC(c1ccccc1)c1ccccc1 | -1 |
| COc1cc2c(cc1O)C[C@H]1c3cc(O)c(OC)cc3CC[N+]1(C)C2 (stereo partly drawn) | 37 |
| COc1cc(-c2coc3cc(O)c(OC)c(O)c3c2=O)cc(O)c1OC | -34 |
| COc1cc(-c2oc3cc(O)cc(O)c3c(=O)c2O[C@@H]2O[C@H](CO)[C@@H](O)[C@H](O)[C@H]2O[C@@H]2O[C@@H](C)[C@H](O)[C@@H](O)[C@H]2O)ccc1O | -5 |

Block 3 — host: mouse; matrix: microsomes or S9; concentration: 2 µM; time: 0.5 h
| SMILES | remaining compound [%] |
| --- | --- |
| CCOc1ccccc1NC(=O)N1Cc2c(sc3c2CCCC3)-n2cccc2C1c1ccc(N(C)C)cc1 (stereo not drawn) | 14.6 |
| CCCN(CCC)C(=O)c1cccc(C(=O)NN(Cc2cc(F)cc(F)c2)C(=O)[C@H](NCC(=O)NCc2ccccc2)C(C)C)c1 | 0.343 |
| Cc1nnc(N2CCc3nn(C)c(=O)cc3C2)c(C#N)c1C | > 100 |
| CC(CC(=O)c1ccc2ccccc2c1)n1nnc(-c2ccccc2)n1 (stereo not drawn) | 0.963 |
| COc1cc(C2CCN(C(=O)OC(C)(C)C)CC2)ccc1Nc1ncc(Cl)c2[nH]c3c(S(=O)(=O)C(C)C)cccc3c12 | 62.4 |
| CC(c1ccc(-c2ccc(S(N)(=O)=O)cc2F)cc1)N1CCOCC1 (stereo not drawn) | 37.9 |
| CC(Nc1oc(/C=C/c2cccs2)nc1C#N)c1ccccc1 (stereo not drawn) | 0.57 |
| N#Cc1ccc2nc(-n3cncn3)c(-c3ccc(Cl)cc3Cl)c(C#N)c2c1 | > 100 |
| Nc1ccc(C(=O)Nc2nc(-c3ccc(F)cc3F)cs2)cc1 | 49 |
| Cc1ccc(S(=O)(=O)n2cc(Br)c3c(N4C[C@@H](C)O[C@@H](C)C4)ncnc32)cc1 | < 1 |

Block 4 — cell line: mouse MPNST tumor cells; method: high-content nuclear imaging; item: cell number; concentration: 10 µM; time: 12 h; setting: mean of 2 replicates; baseline: plate mean; direction: higher = more cells
| SMILES | nuclei count |
| --- | --- |
| C=CCOC(Cn1ccnc1)c1ccc(Cl)cc1Cl (stereo not drawn) | -0.246 z-score |
| Cc1cn2cc(CC(=O)N3CCC4(CC3)CN(Cc3ccc(-n5nccn5)cc3Cl)C4)nc2s1 | 4.33 z-score |
| COc1ccccc1OCC(O)CO (stereo not drawn) | 1.57 z-score |
| CN(C)CCC[C@@]1(c2ccc(F)cc2)OCc2cc(C#N)ccc21 | 3.43 z-score and 3.23 z-score |
| COc1cccc(-n2nc(C(=O)O)cc2-c2ccc(C3CCCCC3)c(Cl)c2)c1 | 0.494 z-score |
| O=C(CNC(=O)c1cccc(C(F)(F)F)c1)N[C@@H]1CCN(Cc2ccc(Cl)cc2)C1 | 5.85 z-score |
| CC(=O)OCC(COC(C)=O)OC(C)=O | -0.568 z-score |

Some of these lines once more (block 3):
| SMILES | remaining compound [%] |
| --- | --- |
| COc1cc(C2CCN(C(=O)OC(C)(C)C)CC2)ccc1Nc1ncc(Cl)c2[nH]c3c(S(=O)(=O)C(C)C)cccc3c12 | 62.4 |
| CCOc1ccccc1NC(=O)N1Cc2c(sc3c2CCCC3)-n2cccc2C1c1ccc(N(C)C)cc1 (stereo not drawn) | 14.6 |
| CCCN(CCC)C(=O)c1cccc(C(=O)NN(Cc2cc(F)cc(F)c2)C(=O)[C@H](NCC(=O)NCc2ccccc2)C(C)C)c1 | 0.343 |
